Measured values from different studies.
Parts stem from different laboratories: compare values within a part only. Substitutions count along the parent as printed.
Chain of UniProt Q9Y5S2 (whole entry, looked up): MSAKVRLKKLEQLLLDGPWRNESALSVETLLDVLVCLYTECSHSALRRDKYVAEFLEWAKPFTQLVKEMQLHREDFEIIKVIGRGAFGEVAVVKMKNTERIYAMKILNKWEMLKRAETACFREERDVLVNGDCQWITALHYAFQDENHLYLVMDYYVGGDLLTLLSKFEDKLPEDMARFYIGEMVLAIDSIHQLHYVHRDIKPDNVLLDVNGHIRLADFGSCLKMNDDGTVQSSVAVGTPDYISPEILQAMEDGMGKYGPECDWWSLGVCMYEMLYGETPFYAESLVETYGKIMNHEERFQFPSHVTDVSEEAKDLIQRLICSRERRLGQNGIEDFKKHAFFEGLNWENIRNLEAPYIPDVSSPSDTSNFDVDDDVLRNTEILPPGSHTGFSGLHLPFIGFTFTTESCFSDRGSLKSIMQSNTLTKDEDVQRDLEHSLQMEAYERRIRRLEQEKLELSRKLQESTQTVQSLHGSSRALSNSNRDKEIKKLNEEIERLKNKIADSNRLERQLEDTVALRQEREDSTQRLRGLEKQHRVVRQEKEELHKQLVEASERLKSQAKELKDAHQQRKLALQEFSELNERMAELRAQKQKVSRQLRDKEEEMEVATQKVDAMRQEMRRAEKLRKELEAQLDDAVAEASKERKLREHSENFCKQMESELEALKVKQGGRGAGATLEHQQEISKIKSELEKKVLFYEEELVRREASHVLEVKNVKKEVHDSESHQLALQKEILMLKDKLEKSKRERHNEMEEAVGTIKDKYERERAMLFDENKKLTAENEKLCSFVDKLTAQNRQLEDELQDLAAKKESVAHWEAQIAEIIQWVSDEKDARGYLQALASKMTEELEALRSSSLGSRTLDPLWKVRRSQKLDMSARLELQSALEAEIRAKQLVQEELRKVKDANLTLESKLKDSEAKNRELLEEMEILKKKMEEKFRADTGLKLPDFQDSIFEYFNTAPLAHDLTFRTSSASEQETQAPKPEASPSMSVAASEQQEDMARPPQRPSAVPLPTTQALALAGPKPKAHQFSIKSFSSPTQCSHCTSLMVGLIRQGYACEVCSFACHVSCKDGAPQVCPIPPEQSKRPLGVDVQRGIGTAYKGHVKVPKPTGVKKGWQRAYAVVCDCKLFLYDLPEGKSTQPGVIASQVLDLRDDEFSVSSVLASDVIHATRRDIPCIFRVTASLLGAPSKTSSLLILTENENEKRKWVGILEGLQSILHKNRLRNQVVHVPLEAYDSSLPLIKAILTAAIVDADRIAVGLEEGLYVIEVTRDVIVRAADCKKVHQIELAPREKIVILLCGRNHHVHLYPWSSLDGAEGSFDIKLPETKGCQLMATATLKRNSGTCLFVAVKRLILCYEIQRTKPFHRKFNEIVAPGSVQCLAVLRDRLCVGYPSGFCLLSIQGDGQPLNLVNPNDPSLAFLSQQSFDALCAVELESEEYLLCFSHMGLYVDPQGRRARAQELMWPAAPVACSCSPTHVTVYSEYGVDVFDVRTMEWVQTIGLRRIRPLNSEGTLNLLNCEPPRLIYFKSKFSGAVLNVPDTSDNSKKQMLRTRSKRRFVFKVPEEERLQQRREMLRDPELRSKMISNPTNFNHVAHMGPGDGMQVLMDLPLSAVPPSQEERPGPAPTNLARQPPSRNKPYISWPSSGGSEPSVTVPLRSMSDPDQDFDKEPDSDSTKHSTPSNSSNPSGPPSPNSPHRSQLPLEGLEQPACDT

Block 1 — target: CCND3, cyclin fold, Cln2 fusion (human); method: yeast growth competition, sequencing; sample: yeast; notes: weak parent motif; baseline: not given; reading: higher = stronger binding
Parent: CDC25A docking peptide (human); PPHRRRLLFACSP; partner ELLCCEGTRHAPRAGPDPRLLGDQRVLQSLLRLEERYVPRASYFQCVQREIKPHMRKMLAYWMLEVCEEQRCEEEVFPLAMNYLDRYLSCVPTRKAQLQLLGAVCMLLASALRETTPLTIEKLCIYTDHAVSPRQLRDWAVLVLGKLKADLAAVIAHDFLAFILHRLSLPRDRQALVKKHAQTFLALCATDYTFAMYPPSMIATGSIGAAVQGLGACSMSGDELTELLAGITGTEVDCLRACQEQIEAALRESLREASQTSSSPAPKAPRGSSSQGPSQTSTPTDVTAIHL
For `R6D`, “normalised enrichment score” read 0.104.
For `P13M`, “normalised enrichment score” read 0.115.
Under “normalised enrichment score”, `R4A` is recorded as 0.124.
`C11F`: “normalised enrichment score” 0.163.
`P1Y`: “normalised enrichment score” 0.159.
Under “normalised enrichment score”, `R5I` is recorded as 0.162.
`R4H` — result for “normalised enrichment score”: 0.0781.
Under “normalised enrichment score”, `A10P` is recorded as 0.121.

Block 2 — target: Sox-I, HMG box (Salpingoeca helianthica); method: Spec-seq; form: double-stranded DNA, one strand shown; sample: in vitro; concentration: not given; notes: whole probe, mean of replicates; baseline: not given; reading: lower = stronger binding; constant ends, left off below: GAGTCGTCTCGTCAGCAC … CCGTAGAGCACTCAGGTC
Target sequence (chain): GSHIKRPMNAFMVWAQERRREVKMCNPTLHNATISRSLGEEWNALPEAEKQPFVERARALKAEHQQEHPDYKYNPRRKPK
`CATCGTC`: “relative binding energy” 0.918 ln ratio.
For `CCTCGTT`, “relative binding energy” read 0.169 ln ratio.
`CATTTGG`: “relative binding energy” 1.33 ln ratio.
For `CATTGAT`, “relative binding energy” read -0.132 ln ratio.
`CGGTGTT`: “relative binding energy” 0.51 ln ratio.
`CACCGTT` — result for “relative binding energy”: 0.439 ln ratio.
For `CATGAGT`, “relative binding energy” read 1.01 ln ratio.
`TTGTGTT`: “relative binding energy” -0.356 ln ratio.

Single results of other studies
For `CCOc1cc2ncnc(Nc3cccc(Br)c3)c2cc1OCC`, the remaining activity was 107% (CDC42BPB (Homo sapiens, UniProt Q9Y5S2); enzyme activity, inhibitor; 0.5 µM; baseline: control).
With `PhoQ, residues 284 288 289 292 302 303 GLASVI` the fold induction was 9.55 (PhoP, residues 12 14 15 18 19 NQFFI (Escherichia coli, UniProt P23836); Sort-seq, refers to: YFP reporter; E. coli; PhoQ-PhoP variant library, added: 10 µM Mg2+; baseline: high Mg2+ state, higher = stronger signaling).

A few entries again (single results of other studies):
For `CCOc1cc2ncnc(Nc3cccc(Br)c3)c2cc1OCC`, the remaining activity was 107% (CDC42BPB (Homo sapiens, UniProt Q9Y5S2); enzyme activity, inhibitor; 0.5 µM; baseline: control).
With `PhoQ, residues 284 288 289 292 302 303 GLASVI` the fold induction was 9.55 (PhoP, residues 12 14 15 18 19 NQFFI (Escherichia coli, UniProt P23836); Sort-seq, refers to: YFP reporter; E. coli; PhoQ-PhoP variant library, added: 10 µM Mg2+; baseline: high Mg2+ state, higher = stronger signaling).
